Assay results pooled from the literature.
Parts stem from different laboratories: compare values within a part only.
UniProt Q12852, sequence (whole entry, looked up): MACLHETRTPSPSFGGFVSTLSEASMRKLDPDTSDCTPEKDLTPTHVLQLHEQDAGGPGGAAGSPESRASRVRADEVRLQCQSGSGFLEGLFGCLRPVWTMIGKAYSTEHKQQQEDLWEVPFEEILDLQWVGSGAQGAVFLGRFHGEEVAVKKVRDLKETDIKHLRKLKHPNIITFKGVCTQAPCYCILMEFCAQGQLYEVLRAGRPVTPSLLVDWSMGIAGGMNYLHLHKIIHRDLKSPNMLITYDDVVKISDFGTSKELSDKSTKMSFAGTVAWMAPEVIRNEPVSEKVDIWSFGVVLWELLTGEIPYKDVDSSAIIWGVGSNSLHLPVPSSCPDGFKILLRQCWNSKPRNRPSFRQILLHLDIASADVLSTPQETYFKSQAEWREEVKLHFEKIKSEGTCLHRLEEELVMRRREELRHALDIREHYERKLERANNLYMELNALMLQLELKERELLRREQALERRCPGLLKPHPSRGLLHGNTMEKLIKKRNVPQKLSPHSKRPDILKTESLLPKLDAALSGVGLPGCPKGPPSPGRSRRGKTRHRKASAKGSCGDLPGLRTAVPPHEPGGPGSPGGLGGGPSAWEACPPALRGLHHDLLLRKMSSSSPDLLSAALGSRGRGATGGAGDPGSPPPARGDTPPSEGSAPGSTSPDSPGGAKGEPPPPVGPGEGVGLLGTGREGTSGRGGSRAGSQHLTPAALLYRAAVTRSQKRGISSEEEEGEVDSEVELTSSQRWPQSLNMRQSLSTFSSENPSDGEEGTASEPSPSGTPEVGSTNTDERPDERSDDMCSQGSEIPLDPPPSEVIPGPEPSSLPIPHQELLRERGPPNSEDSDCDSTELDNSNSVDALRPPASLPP
UniProt P47898, sequence (whole entry, looked up): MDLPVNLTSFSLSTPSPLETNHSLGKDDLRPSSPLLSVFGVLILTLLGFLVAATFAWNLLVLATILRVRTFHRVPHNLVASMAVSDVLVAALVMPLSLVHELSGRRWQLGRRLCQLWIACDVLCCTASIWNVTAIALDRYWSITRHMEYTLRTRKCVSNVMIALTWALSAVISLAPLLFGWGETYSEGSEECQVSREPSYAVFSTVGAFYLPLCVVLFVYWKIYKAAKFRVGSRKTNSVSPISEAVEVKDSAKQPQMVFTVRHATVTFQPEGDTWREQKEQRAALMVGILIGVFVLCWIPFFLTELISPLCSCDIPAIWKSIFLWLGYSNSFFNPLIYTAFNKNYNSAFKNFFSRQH
UniProt Q8TAS1, sequence (whole entry, looked up): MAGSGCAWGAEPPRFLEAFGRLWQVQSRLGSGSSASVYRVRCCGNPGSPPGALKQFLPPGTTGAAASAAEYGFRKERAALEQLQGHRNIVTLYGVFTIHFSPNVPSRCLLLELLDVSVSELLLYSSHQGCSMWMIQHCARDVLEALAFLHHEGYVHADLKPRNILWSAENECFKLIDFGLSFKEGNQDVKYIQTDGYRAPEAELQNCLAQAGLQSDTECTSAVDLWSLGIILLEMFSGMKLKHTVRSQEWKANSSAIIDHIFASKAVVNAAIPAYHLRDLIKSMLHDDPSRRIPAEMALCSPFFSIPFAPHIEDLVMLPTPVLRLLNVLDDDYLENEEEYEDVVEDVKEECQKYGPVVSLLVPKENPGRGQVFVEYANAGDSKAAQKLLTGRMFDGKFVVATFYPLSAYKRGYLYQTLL
UniProt Q5MAI5, sequence (whole entry, looked up): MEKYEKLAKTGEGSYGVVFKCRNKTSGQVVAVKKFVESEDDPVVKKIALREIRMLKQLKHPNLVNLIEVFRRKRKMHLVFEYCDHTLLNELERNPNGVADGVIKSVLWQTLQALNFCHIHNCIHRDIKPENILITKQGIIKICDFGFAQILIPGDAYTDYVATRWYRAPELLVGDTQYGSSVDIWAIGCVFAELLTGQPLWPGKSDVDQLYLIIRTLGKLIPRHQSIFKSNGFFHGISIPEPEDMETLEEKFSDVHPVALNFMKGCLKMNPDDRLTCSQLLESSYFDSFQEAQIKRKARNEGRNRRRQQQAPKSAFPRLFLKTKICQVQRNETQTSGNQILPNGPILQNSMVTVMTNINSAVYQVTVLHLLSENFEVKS
UniProt P35916, sequence (whole entry, looked up): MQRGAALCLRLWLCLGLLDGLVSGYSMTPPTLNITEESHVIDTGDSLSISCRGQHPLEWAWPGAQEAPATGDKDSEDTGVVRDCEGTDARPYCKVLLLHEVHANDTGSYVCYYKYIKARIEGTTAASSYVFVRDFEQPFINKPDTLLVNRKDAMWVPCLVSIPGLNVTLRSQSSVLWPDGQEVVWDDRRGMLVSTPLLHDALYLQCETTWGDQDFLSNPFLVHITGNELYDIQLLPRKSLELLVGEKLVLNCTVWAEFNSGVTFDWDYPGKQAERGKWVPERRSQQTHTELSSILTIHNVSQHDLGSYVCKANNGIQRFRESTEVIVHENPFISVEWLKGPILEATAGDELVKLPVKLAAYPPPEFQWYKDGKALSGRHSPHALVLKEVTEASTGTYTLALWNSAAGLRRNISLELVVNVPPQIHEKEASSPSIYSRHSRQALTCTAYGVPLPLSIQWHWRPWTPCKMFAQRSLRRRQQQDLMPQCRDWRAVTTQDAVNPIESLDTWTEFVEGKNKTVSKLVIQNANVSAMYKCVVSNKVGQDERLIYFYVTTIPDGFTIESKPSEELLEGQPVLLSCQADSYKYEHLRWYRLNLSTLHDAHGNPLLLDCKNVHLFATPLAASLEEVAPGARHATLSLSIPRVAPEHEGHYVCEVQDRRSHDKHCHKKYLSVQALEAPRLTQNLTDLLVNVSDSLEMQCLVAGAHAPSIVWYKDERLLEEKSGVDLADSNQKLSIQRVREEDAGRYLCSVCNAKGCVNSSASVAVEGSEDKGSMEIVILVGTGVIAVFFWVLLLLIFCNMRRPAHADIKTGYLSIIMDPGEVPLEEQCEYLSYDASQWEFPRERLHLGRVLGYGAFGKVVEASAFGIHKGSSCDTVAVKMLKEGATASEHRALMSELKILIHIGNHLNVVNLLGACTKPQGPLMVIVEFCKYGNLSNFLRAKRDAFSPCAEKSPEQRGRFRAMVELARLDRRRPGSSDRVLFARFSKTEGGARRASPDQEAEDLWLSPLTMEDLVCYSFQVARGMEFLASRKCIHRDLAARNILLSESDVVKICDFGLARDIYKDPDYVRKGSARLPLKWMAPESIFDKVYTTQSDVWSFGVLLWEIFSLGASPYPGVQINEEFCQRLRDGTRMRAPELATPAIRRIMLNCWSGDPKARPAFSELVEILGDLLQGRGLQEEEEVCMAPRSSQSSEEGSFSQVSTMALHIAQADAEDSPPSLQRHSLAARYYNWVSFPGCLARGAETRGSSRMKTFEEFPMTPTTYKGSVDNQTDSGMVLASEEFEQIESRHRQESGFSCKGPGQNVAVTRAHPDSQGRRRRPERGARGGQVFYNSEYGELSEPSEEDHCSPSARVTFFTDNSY
UniProt P08588, sequence (whole entry, looked up): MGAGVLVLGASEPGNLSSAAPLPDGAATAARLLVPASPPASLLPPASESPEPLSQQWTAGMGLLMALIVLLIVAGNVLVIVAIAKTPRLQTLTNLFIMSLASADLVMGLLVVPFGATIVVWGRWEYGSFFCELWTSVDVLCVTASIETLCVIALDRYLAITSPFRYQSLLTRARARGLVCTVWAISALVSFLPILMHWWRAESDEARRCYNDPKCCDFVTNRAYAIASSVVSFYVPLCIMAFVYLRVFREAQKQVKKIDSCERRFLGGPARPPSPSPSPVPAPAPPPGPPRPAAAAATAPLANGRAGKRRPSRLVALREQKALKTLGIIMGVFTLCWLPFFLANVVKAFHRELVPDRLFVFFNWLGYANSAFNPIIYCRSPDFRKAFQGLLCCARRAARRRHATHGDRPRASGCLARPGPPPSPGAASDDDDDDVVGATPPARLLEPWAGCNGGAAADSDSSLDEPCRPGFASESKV

Block 1
SMILES: COc1cc(C(=O)N2CCC(N3CCN(C)CC3)CC2)ccc1Nc1ncc2c(n1)N(C)c1ccccc1C(=O)N2C
tested on	test	system	setting	inhibition [%]
human PBMC	probe labeling, inhibitor, KiNativ profiling, measured: VKELPTLkDMDFLNK	cell lysate	concentration not given, ATP site, with: ATP acyl-phosphate probe 1 µM	4.6
PCTAIRE1 (human)	probe labelling, KiNativ ADP probe	human PBMC lysate	concentration not given, LYS1 labelled site	-8.1
human PBMC	probe labeling, inhibitor, KiNativ profiling, measured: DVkPDNMLLDK	cell lysate	concentration not given, LYS2 site, with: ATP acyl-phosphate probe 1 µM	9.5
Serine/threonine-protein kinase MARK2 (Mark2, Mus musculus, UniProt Q05512)	KiNativ profiling	mouse brain lysate	1 µM, LYS1 site, with: ATP acyl phosphate probe	7.7
FER (human)	probe labelling, KiNativ ATP probe	human PBMC lysate	concentration not given, LYS1 labelled site	1.2
mouse BRSK2 and CHK1	probe labelling, KiNativ ADP probe	mouse brain lysate	0.1 µM, LYS2 site DIkPENLLLDER	14.8
NEK1 (mouse)	probe labelling, KiNativ, measured: DIkSQNIFLTK peptide, LYS2 site	brain tissue lysate (mouse)	1 µM, with: ADP acyl-phosphate probe	7.6
CaMK2g (mouse)	probe labelling, KiNativ, measured: Lys1 site peptide	brain tissue lysate (mouse)	0.1 µM, with: ADP acyl-phosphate probe	-32.7
human PBMC	probe labeling, inhibitor, KiNativ profiling	cell lysate	concentration not given, ATP site, with: ADP acyl-phosphate probe 1 µM	0.1

Block 2
SMILES: C=CCc1ccc(O)c(-c2cc(CC=C)ccc2O)c1
Target: Anoctamin-1 (ANO1, Homo sapiens, UniProt Q5XXA6, del476-501)
UniProt Q5XXA6, sequence (whole entry, unmodified, looked up): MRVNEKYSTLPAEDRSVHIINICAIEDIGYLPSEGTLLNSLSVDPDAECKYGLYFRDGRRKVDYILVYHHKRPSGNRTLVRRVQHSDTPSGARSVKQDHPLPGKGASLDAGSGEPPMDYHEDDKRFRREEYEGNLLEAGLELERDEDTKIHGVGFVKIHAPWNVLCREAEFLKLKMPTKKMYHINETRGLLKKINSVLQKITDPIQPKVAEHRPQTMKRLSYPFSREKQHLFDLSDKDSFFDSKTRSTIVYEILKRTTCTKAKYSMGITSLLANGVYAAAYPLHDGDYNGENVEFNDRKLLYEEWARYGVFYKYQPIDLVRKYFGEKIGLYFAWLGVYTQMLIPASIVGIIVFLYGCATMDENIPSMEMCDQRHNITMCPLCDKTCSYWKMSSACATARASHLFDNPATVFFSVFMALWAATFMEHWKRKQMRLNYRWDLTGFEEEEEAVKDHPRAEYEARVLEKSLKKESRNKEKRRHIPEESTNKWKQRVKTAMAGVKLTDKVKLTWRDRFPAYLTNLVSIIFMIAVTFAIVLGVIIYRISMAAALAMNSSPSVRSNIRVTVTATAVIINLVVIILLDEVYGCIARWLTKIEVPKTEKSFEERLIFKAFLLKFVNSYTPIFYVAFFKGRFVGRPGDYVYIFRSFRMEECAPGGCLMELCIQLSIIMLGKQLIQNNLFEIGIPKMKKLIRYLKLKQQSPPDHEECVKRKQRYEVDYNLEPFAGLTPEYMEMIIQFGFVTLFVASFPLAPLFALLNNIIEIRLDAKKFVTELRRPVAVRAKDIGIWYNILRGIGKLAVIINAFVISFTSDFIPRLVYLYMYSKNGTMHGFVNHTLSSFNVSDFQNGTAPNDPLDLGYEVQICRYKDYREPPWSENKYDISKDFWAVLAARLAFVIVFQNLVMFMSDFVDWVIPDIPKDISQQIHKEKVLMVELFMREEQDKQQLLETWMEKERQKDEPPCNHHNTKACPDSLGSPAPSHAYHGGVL
Effect on: chloride current
Technique: whole-cell patch clamp
tested at	setting	with	normalised current
30 µM	-60 mV, 300 nM free Ca2+	honokiol and magnolol 3 µM	-0.0201
30 µM	40 mV, 300 nM free Ca2+	–	0.073
3 µM	100 mV, 300 nM free Ca2+	–	0.925
10 µM	0 mV, 300 nM free Ca2+	–	-0.000189

Block 3
SMILES: O=C1NC(=O)C(c2cn(-c3ccccc3)nc2-c2ccc(F)cc2)N1 (stereo not drawn)
Mode: inhibitor
Tested at: 5 µM
target	effect on	technique	cells	setting	reference	log2 fold change
Vascular endothelial growth factor receptor 3 (FLT4, Homo sapiens, UniProt P35916)	–	cell-based translocation	human cells	–	vehicle	-0.673
Mitogen-activated protein kinase kinase kinase 12 (MAP3K12, Homo sapiens, UniProt Q12852)	–	cell-based kinome screen	human cells	–	untreated control	-0.318
Serine/threonine-protein kinase Kist (UHMK1, Homo sapiens, UniProt Q8TAS1)	kinase-CDC37 interaction	–	human cells	–	vehicle	0.37
kinase–CDC37 interaction	kinase–CDC37 binding	–	human cells	PRKY	vehicle	-0.176
Cytoplasmic tyrosine-protein kinase BMX (BMX, Homo sapiens, UniProt P51813)	kinase–CDC37 interaction	–	–	kinome plate 3@D10	vehicle	-0.084
Cyclin-dependent kinase-like 4 (CDKL4, Homo sapiens, UniProt Q5MAI5)	kinase-CDC37 interaction	–	human cells	–	vehicle	0.163

Other studies, line by line
Structure (SMILES)	target	effect on	mode	cells	tested at	measurement	value
CN([C@@H]1CCc2c(CC(=O)O)c3ccccc3n2C1)S(=O)(=O)c1ccc(F)cc1	5-hydroxytryptamine receptor 5A (HTR5A, Homo sapiens, UniProt P47898)	ligand displacement	–	–	10 µM	inhibition	-1.36%
Cc1cc2c(OCC(CNC(C)(C)C)OC(=O)c3ccccc3)cccc2[nH]1 (stereo not drawn)	Beta-1 adrenergic receptor (ADRB1, Homo sapiens, UniProt P08588)	–	agonist	cells	–	efficacy	113%
